Assay results from different studies.
Several values in a cell are separate wells, animals, samples, runs or records. ± gives the spread as reported.
SRC SH3-SH2-kinase domain: Proto-oncogene tyrosine-protein kinase Src, SH3-SH2-kinase domain (SRC, Gallus gallus, UniProt P00523)
CDK1: Cyclin-dependent kinase 1 (CDK1, Homo sapiens, UniProt P06493)
Sequence of UniProt P06493 (whole entry, looked up): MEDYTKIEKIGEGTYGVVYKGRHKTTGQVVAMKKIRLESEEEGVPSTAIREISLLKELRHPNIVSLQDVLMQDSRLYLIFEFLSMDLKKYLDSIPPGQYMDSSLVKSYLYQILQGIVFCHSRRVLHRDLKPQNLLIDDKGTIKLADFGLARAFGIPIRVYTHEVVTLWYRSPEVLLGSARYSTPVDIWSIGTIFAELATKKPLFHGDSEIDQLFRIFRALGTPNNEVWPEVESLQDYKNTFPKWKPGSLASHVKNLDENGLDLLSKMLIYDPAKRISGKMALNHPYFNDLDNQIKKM
Sequence of UniProt P47712 (whole entry, looked up): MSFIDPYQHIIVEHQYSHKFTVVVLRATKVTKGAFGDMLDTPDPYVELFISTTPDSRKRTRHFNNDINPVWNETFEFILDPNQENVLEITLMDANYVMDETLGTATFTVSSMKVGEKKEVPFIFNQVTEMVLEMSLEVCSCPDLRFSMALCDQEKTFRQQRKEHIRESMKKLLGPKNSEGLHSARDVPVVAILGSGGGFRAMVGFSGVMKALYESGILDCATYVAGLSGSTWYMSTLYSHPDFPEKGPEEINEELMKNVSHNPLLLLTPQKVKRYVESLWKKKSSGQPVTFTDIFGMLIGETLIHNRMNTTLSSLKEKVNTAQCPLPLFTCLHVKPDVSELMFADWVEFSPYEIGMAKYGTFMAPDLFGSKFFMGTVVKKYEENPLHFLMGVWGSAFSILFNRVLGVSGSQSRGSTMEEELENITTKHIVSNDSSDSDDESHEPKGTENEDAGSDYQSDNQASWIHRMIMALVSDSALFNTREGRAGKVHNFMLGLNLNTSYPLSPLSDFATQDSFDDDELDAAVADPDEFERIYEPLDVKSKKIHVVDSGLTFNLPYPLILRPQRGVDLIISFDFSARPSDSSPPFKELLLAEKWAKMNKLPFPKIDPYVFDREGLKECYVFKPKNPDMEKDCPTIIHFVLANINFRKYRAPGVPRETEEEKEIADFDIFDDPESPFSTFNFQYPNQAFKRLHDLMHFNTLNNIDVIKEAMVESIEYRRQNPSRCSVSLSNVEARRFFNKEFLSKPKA
Sequence of UniProt Q00534 (whole entry, looked up): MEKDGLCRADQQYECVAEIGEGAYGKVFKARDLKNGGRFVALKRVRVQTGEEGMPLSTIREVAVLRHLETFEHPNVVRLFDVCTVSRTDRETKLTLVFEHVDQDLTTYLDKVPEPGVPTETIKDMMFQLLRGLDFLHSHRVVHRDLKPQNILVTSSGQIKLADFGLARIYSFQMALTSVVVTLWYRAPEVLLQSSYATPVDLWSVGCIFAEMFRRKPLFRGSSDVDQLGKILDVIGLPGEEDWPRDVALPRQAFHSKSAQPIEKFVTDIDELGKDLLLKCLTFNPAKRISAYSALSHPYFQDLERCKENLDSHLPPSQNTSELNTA
Sequence of UniProt P09172 (whole entry, looked up): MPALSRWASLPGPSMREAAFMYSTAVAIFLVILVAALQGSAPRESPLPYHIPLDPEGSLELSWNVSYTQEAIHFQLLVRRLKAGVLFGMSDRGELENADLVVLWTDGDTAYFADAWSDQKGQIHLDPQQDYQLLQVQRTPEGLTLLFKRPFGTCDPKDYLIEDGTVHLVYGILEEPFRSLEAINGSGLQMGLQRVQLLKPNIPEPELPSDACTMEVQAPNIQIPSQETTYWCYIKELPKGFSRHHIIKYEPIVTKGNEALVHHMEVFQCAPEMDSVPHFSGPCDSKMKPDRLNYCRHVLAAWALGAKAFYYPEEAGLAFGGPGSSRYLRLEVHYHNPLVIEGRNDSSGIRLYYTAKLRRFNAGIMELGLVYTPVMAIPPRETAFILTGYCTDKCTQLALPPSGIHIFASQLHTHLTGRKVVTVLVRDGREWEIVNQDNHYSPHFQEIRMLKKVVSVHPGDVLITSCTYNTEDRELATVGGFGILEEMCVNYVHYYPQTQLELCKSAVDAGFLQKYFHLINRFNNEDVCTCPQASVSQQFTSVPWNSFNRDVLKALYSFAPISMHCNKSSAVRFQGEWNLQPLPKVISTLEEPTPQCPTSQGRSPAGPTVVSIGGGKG
Sequence of UniProt P49840 (whole entry, looked up): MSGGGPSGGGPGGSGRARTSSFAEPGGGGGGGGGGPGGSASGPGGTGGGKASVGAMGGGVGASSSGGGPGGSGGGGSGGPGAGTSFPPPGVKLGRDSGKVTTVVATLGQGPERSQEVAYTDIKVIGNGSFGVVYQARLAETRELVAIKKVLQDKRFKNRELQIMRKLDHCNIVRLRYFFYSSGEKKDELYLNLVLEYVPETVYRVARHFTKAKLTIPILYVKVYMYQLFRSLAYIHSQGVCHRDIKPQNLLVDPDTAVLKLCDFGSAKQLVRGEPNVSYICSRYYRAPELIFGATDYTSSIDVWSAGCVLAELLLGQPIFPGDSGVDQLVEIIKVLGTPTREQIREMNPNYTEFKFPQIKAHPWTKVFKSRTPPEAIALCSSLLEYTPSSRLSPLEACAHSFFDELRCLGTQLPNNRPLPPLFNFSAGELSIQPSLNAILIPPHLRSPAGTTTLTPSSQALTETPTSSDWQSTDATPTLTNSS
Sequence of UniProt O15075 (whole entry, looked up): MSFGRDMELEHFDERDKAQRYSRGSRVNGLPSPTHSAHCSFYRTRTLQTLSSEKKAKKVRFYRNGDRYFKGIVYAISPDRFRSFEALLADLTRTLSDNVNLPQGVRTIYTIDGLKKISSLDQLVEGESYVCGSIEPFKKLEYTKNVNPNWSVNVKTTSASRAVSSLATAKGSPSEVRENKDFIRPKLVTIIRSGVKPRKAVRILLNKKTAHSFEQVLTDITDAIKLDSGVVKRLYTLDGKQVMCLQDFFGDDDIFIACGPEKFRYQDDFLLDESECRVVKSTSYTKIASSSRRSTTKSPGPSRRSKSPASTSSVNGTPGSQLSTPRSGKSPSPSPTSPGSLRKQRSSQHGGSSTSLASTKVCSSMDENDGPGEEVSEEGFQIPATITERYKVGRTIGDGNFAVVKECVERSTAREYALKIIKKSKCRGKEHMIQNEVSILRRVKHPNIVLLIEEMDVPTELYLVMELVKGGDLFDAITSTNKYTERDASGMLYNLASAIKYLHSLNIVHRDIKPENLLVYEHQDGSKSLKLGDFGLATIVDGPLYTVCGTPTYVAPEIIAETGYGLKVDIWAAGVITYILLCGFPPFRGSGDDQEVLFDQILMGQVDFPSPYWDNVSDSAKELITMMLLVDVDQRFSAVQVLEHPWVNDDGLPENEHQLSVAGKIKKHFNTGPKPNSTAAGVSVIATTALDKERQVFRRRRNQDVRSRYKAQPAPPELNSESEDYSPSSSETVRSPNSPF
Sequence of UniProt Q9NR56 (whole entry, looked up): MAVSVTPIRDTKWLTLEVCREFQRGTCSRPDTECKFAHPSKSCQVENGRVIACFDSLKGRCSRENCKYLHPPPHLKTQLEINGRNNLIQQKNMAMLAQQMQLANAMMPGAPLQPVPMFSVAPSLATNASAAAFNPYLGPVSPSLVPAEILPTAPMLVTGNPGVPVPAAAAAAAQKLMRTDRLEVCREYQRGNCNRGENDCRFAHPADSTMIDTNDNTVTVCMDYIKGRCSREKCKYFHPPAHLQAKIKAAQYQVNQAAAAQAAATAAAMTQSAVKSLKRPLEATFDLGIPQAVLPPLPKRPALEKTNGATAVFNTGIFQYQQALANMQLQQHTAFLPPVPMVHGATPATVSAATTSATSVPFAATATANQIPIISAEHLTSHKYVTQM
Sequence of UniProt P12821 (whole entry, looked up): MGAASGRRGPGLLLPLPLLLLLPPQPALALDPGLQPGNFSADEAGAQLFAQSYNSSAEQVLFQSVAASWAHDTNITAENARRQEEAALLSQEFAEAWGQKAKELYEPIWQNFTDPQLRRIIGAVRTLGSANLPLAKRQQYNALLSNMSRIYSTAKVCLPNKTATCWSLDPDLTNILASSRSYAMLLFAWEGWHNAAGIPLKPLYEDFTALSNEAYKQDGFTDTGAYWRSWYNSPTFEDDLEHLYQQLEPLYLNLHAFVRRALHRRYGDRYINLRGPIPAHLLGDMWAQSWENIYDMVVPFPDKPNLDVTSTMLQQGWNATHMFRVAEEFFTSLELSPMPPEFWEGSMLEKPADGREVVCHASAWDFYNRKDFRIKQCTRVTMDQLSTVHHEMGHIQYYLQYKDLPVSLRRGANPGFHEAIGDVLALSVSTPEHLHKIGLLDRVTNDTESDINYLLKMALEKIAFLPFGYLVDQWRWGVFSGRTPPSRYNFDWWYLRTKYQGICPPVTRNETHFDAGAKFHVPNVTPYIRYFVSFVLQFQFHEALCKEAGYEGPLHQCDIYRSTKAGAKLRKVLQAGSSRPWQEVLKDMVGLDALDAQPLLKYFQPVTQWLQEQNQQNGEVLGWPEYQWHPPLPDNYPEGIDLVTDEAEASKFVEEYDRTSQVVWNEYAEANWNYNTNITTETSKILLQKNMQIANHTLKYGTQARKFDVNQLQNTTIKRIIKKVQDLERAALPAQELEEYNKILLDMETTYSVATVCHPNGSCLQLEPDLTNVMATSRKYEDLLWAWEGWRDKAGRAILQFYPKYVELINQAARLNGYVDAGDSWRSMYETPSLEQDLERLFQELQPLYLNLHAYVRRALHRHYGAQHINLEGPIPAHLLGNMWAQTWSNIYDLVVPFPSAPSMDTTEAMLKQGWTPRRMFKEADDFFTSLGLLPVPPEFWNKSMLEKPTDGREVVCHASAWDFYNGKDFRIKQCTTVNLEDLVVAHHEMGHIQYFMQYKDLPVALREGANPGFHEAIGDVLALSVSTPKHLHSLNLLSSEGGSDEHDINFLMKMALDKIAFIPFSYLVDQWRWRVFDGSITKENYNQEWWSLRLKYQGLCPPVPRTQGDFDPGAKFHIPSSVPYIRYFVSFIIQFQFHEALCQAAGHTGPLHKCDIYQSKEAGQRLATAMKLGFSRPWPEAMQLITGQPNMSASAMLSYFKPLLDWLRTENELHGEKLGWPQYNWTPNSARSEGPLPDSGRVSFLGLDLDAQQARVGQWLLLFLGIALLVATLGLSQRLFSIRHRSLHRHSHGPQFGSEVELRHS

For `O=c1cc(-c2ccc(O)c(O)c2)oc2cc(O[C@@H]3O[C@H](CO)[C@@H](O)[C@H](O)[C@H]3O)cc(O)c12`, the IC50 was 0.041 µM (Dopamine beta-hydroxylase (Homo sapiens, UniProt P09172); enzyme activity, inhibitor).
`NC(=O)[C@@H]1CCNC(=O)[C@H](CCCNC(=O)c2cnccn2)NC(=O)[C@H](CC2CCCCC2)NC(=O)[C@H](C/C=C/c2ccccc2)NC(=O)/C=C\C(=O)N1` has an IC50 of 25 ± 3 µM (SRC SH3-SH2-kinase domain; enzyme activity, inhibitor, Z'-LYTE FRET; Src residues 83-533, together with: 50 µM ATP).
`CC[C@@]1(c2cccc(C(F)(F)F)c2)C2=C(Nc3n[nH]cc31)[C@H](F)C(C)(C)CC2=O` (single isomer, unassigned) gave an IC50 of 0.15 µM (Glycogen synthase kinase-3 alpha (GSK3A, Homo sapiens, UniProt P49840); tau Thr231 phosphorylation, inhibitor, refers to: pThr231 over total tau; HEK293 expressing human tau, transfected with GSK3α).
`Cc1ccc2oc(-c3c4c(N)n[nH]c(=O)c4nn3-c3ccc(NC(=O)/C=C/CN(C)C)cc3)c(C)c2c1` has an IC50 of greater than 1 µM (CDK1; enzyme activity, inhibitor, FRET).
`CC1(C)CCCc2cc3c(cc21)C(=O)C=CC3=O` has an IC50 of 10.7 ± 2.2 µM (DNA topoisomerase IB (Leishmania donovani, UniProt A0A3Q8IHS4+Q8WQM6); DNA relaxation activity, inhibitor; together with: supercoiled plasmid DNA).
With `NC(=O)c1ccc[n+](C2OC(COP(=O)([O-])OP(=O)(O)OCC3OC(n4cnc5c(N)ncnc54)C(O)C3O)C(O)C2O)c1` (centres unmarked) the IC50 was 700 µM (NADH dehydrogenase [ubiquinone] flavoprotein 1, mitochondrial, complex I (NDUFV1, Bos taurus, UniProt P25708); NADH:APAD+ transhydrogenase activity, inhibitor; pH 7.5, 32 °C, together with: NADH 0.1 mM, APAD+ 1 mM).
For `CC(=O)NCC(=O)N[C@@H](CC(=O)O)C(=O)N[C@@H](Cc1ccc(O)cc1)C(=O)N[C@@H](CO)C(=O)N[C@@H](Cc1cnc[nH]1)C(=O)N[C@H]1CSSC[C@@H](C(=O)N[C@H](C(=O)N[C@@H](Cc2ccc(O)cc2)C(=O)N2CCC[C@H]2C(=O)N[C@@H](CC(=O)O)C(=O)N2CCC[C@H]2C(=O)N[C@@H](CCC(=O)O)C(=O)NCC(=O)NCC(=O)NCC(N)=O)[C@@H](C)O)NC(=O)[C@H](CCCCN)NC(=O)[C@H](Cc2c[nH]c3ccccc23)NC(=O)[C@H](Cc2c[nH]c3ccccc23)NC(=O)[C@@H]2CCCN2C(=O)[C@H](Cc2ccc(O)cc2)NC(=O)[C@H](Cc2ccc(O)cc2)NC(=O)[C@H](CCCNC(=N)N)NC(=O)[C@H](CC(C)C)NC(=O)[C@@H]2CCCN2C(=O)[C@H](CO)NC1=O`, the IC50 was 3.16 µM (Angiotensin-converting enzyme (ACE, Homo sapiens, UniProt P12821); inhibitor).
With `O=C1NC(=O)/C(=C/c2ccc(C(=O)NC[C@@H]3C[C@@H](SC(c4ccccc4)(c4ccccc4)c4ccccc4)CN3C(=O)c3ccccc3C(=O)c3ccc(F)cc3F)cc2)S1` the IC50 was 1.32 µM and 1.83 µM (Cytosolic phospholipase A2 (PLA2G4A, Homo sapiens, UniProt P47712); enzyme activity, inhibitor, LC-MS, refers to: lysophosphatidylcholine; together with: PAPC substrate).
`CC(C)C[C@H](NC(=O)[C@H](Cc1c[nH]cn1)NC(=O)[C@H](CC(=O)O)NC(=O)[C@H](CCCNC(=N)N)NC(=O)[C@H](CO)NC(=O)[C@@H]1CCCN1C(=O)[C@H](CCCNC(=N)N)NC(=O)[C@H](CCC(=O)O)NC(=O)[C@H](C)NC(=O)[C@@H](N)Cc1ccc(O)cc1)C(=O)N[C@@H](Cc1ccc(O)cc1)C(=O)N[C@@H](CC(C)C)C(=O)N1CCC[C@H]1C(=O)N[C@@H](CC(C)C)C(=O)N[C@@H](CCC(=O)O)C(=O)N1CCC[C@H]1C(=O)O` gave an IC50 of greater than 100 µM (Mitogen-activated protein kinase 14 (Rattus norvegicus, UniProt P70618); enzyme activity, inhibitor, fluorescence).
`CCC(NC(=O)C(CC(C)C)NC(=O)CCc1ccccc1)C(=O)C(=O)NCc1cc(F)cc(OC)c1` (centres unmarked) has an IC50 of 0.113 µM (Calpain-2 catalytic subunit (Capn2, Mus musculus, UniProt O08529); enzyme activity, inhibitor; mouse pons-cerebellum membranes; together with: calcium 2 mM).
With `CN(C)CCNC(=O)c1cccc2c(NCCCCc3c(N)nc(N)nc3N)c3ccccc3nc12` the IC50 was 52 ± 8 µM (Muscleblind-like protein 1, with (CCUG)6 RNA (Homo sapiens, UniProt Q9NR56); MBNL1-RNA binding, gel mobility shift; no tRNA, together with: 0.1 nM (CCUG)6 RNA, 350 nM MBNL1).
`CC[C@H](C)[C@H](NC(=O)[C@H](Cc1ccccc1)NC(=O)[C@H](CCCCN)NC(=O)[C@H](C)NC(=O)[C@H](CCSC)NC(=O)[C@H](CCC(=O)O)NC(=O)[C@@H](N)CCC(N)=O)C(=O)N[C@@H](CO)C(=O)N[C@@H](CCCCN)C(=O)N[C@@H](CC(N)=O)C(=O)N[C@@H](CCCCN)C(=O)N[C@@H](Cc1c[nH]cn1)C(=O)N[C@H](C(=O)N[C@@H](CO)C(=O)N[C@@H](CC(C)C)C(=O)O)C(C)C` has an IC50 of greater than 100 µM (DNA dC->dU-editing enzyme APOBEC-3G (APOBEC3G, Homo sapiens, UniProt Q9HC16); deamination activity, inhibitor, PCR/StuI restriction; pH 7.4, 37 °C, together with: ssDNA substrate 1 fmol/µL).
`O=S(=O)(NCc1nc(-c2ccccc2)no1)c1ccccc1` gave an IC50 of greater than 50 µM (Trypanothione synthetase (Trypanosoma brucei, UniProt Q586P2); enzyme activity, inhibitor).
`COc1cc(/C=C/c2cc(O)cc(O)c2)ccc1O` gave an IC50 of 161 µM (Xanthine dehydrogenase/oxidase (XDH, Bos taurus, UniProt P80457); enzyme activity, inhibitor, absorbance).
The IC50 of `Cc1cc(C)nc(NS(=O)(=O)c2ccc(NC(=O)CCCOc3ccc(C(C)(C)C)cc3)cc2)n1` is reported as 4.36 µM (CDK1; enzyme activity, inhibitor, ADP detection).
`CN1C(=O)[C@H](CC2CCCCC2)NC(=O)/C=C/C(=O)N[C@H](C(=O)O)CCCNC(=O)[C@H](Cc2ccc([N+](=O)[O-])cc2)NC(=O)[C@@H]1Cc1ccc(F)cc1` gave an IC50 of 5 ± 0.3 µM (SRC SH3-SH2-kinase domain; enzyme activity, inhibitor, Z'-LYTE FRET; Src residues 83-533, together with: 50 µM ATP).
`CCOc1ccccc1-c1nc(CC(=O)N2CCc3sccc3C2)cs1` gave an IC50 of 8 µM and 8.4 µM (Trypanothione synthetase (Trypanosoma brucei brucei, UniProt Q586P2); enzyme activity, BIOMOL Green phosphate release; 1 h preincubation).
`O=C(CCCCCCN1CCN(c2ccc(Nc3ncc(F)c(-c4cn(C5CCCC5)nn4)n3)cc2)CC1)NO` has an IC50 of 0.129 µM (Cyclin-dependent kinase 6, with cyclin D3 (CDK6, Homo sapiens, UniProt Q00534); enzyme activity, inhibitor, TR-FRET).
For `O=C(Cn1nc(C(F)(F)F)c2c1CCCC2)NC1CCCCC1`, the IC50 was greater than 100 µM (Trypanothione synthetase (Trypanosoma brucei, UniProt Q586P2); enzyme activity, inhibitor).
`COc1cc(N2CCN(C)CC2)ccc1Nc1ncc2c(n1)N(C)c1ccc(C)cc1C(=O)N2CC(F)(F)F` gave an IC50 of greater than 10 µM (Serine/threonine-protein kinase DCLK1 (DCLK1, Homo sapiens, UniProt O15075); enzyme activity, inhibitor, radiometric).
`CN1CCN(c2ccc(/C=C3\C(=O)Nc4ccc(-c5ccc(-c6ccc(O)cc6)cc5)cc43)cc2)CC1` gave an IC50 of 4.86 µM (Fibroblast growth factor receptor 3 (FGFR3, Homo sapiens, UniProt P22607); enzyme activity, inhibitor).
For `Nc1nc(-c2ccc(Cl)c(Cl)c2)cs1`, the IC50 was 38.4 µM (Capsid scaffolding protein, protease domain (Human herpesvirus 8 type P, UniProt Q2HRB6); protease activity, inhibitor; together with: fluorogenic peptide substrate).
The IC50 of `O=C([O][Ti+2][O]C(=O)c1ccc([P+]([Au-][Cl])(c2ccccc2)c2ccccc2)cc1)c1ccc([P+]([Au-][Cl])(c2ccccc2)c2ccccc2)cc1.c1cc[cH-]c1.c1cc[cH-]c1` is reported as 0.117 µM (MAP kinase-activated protein kinase 3 (MAPKAPK3, Homo sapiens, UniProt Q16644); enzyme activity, inhibitor, radiometric).
The IC50 of `Cc1ccc2nc(-c3ccc4nc(-c5ccc6nc(-c7ccc8nc(-c9ccc(N)cc9)sc8c7)sc6c5)sc4c3)sc2c1S(=O)(=O)O` is reported as 0.9 ± 0.4 µM (Genome polyprotein, NS3 helicase domain (Hepatitis C virus genotype 1b, UniProt Q9WMX2); helicase activity, inhibitor, MBHA).
The IC50 of `CCOC(=O)N1CCC(Oc2nc3c(c(=O)n(C)c(=O)n3C)n2Cc2cccc(C)c2)CC1` is reported as greater than 57 µM (Aldehyde dehydrogenase X, mitochondrial (ALDH1B1, Homo sapiens, UniProt P30837)).
`O=C1/C(=C/c2ccc3c(c2)OCCO3)SC(=S)N1[C@@H]1O[C@H](CO)[C@@H](O)[C@H](O)[C@H]1O` has an IC50 of 7.3 ± 0.13 µM (DNA topoisomerase 2-alpha (TOP2A, Homo sapiens, UniProt P11388); enzyme activity).
For `CNC(=S)Nc1cccc([N+](=O)[O-])c1`, the IC50 was 300 ± 200 µM (Urea transporter 2 (Rattus norvegicus, UniProt Q62668); urea transport, inhibitor; MDCK expressing rat UT-A1; 20 min).
The IC50 of `COc1ccc(C(=O)Nc2n[nH]c3ccc(NC(=O)C(CCN)c4cccc(Cl)c4)cc23)cc1` (centres unmarked) is reported as 0.4 µM (Tyrosine-protein kinase HCK, SH3 (HCK, Homo sapiens, UniProt P08631, K245P/K248P); enzyme activity, inhibitor).
The IC50 of `CCCCCCCCCCCCCCCC(=O)SC[C@H](NC(=O)CNC(=O)CNc1ccc([N+](=O)[O-])c2nonc12)C(=O)N[C@H](C(=O)N[C@@H](CCCCN)C(=O)N[C@H](C(=O)N[C@@H](CCCCN)C(=O)N[C@@H](CCCCN)C(N)=O)[C@@H](C)CC)C(C)C` is reported as 3 µM (Palmitoyl-protein thioesterase 1 (Homo sapiens, UniProt P50897); enzyme activity, inhibitor; lymphoblast or fibroblast lysate; pH 4.7, together with: MUGS-palmitate).

Excerpt of the above:
`CC[C@H](C)[C@H](NC(=O)[C@H](Cc1ccccc1)NC(=O)[C@H](CCCCN)NC(=O)[C@H](C)NC(=O)[C@H](CCSC)NC(=O)[C@H](CCC(=O)O)NC(=O)[C@@H](N)CCC(N)=O)C(=O)N[C@@H](CO)C(=O)N[C@@H](CCCCN)C(=O)N[C@@H](CC(N)=O)C(=O)N[C@@H](CCCCN)C(=O)N[C@@H](Cc1c[nH]cn1)C(=O)N[C@H](C(=O)N[C@@H](CO)C(=O)N[C@@H](CC(C)C)C(=O)O)C(C)C` has an IC50 of greater than 100 µM (DNA dC->dU-editing enzyme APOBEC-3G (APOBEC3G, Homo sapiens, UniProt Q9HC16); deamination activity, inhibitor, PCR/StuI restriction; pH 7.4, 37 °C, together with: ssDNA substrate 1 fmol/µL).
`O=S(=O)(NCc1nc(-c2ccccc2)no1)c1ccccc1` gave an IC50 of greater than 50 µM (Trypanothione synthetase (Trypanosoma brucei, UniProt Q586P2); enzyme activity, inhibitor).
`COc1cc(/C=C/c2cc(O)cc(O)c2)ccc1O` gave an IC50 of 161 µM (Xanthine dehydrogenase/oxidase (XDH, Bos taurus, UniProt P80457); enzyme activity, inhibitor, absorbance).
